Results gathered from unrelated publications.
Numbered parts are unrelated; each lists some results of a single study. Changes are numbered by the printed parent chain.

Sample 1 — technique: protein-binding microarray; molecule type: double-stranded DNA, one strand shown; medium: in vitro; concentration: 940 nM top; notes: 60-bp whole probe; added: salmon DNA 0.4 mg/ml; baseline: random background probes; reading: higher = stronger binding; measurement: fitted relative affinity; all sequences stand within: GCCTAGCAC … GTCTTGATTCGCTTGACGCTGCTG
Target: Interferon regulatory factor 5, full length, phosphomimetic (IRF5, Homo sapiens, UniProt Q13568-2, residues 1-514, S451D/S453D/S456D/S462D)
TTAGGTTTAGGACTGGGTTAGTGCTAG: -0.274 z-score
GACGATATTGGGACTGGAGACGTGCTA: -0.32 z-score
TGAGGACTGGACACTGGGTTAGTGCTA: -0.366 z-score
GACGATATAAGTCTCGAGACGTGCTAG: 0.524 z-score
TCACTCTTGCTTTTTAGACTGTGCTAG: 1.29 z-score
TTAGGTATTGACTATCGGTTAGTGCTA: 0.271 z-score
GACGGTCTGGGGACTGGGGACGTGCTA: -0.144 z-score
TACGAACTGGGGTATCGAGACGTGCTA: 1.03 z-score
GACGATTCCGGTTTCGGGACGTGCTAG: 4.23 z-score
TAAGGTATCGGTATCGGTTAGTGCTAG: 9.41 z-score
TCATTTTTTTTCATCATTGCGTGCTAG: 1.64 z-score
GACGGTATCGACACGGGGGACGTGCTA: 5.46 z-score
TTAGGTCTCCTTATCCGTTAGTGCTAG: 0.345 z-score
TGCTTTCCAATTCTCTTTTCGTGCTAG: 1.56 z-score
GACGATCTCAGTCGCGAGACGTGCTAG: -0.0904 z-score
TGAGGTCTCGGTTTCGGTTAGTGCTAG: 8.75 z-score
TTCGGACTGGACACTGGGTTAGTGCTA: -0.212 z-score
TTAGGTCTCCCTTTCCTTTAGTGCTAG: 0.625 z-score
TCAGTAATCGAAATCTTACTGTGCTAG: -0.00416 z-score
TTAGGGCTCGGTCTCGGTTAGTGCTAG: 1.79 z-score
ACCATTTTGGTTTTCTCTATGTGCTAG: 1.53 z-score

Sample 2 — target: CCNB2, cyclin fold, Cln2 fusion (human); technique: yeast growth competition, sequencing; medium: yeast; notes: weak parent motif; baseline: not given; reading: higher = stronger binding; measurement: normalised enrichment score
Starting sequence: CDKN1A docking peptide (human); SKACRRLFGPVDS; partner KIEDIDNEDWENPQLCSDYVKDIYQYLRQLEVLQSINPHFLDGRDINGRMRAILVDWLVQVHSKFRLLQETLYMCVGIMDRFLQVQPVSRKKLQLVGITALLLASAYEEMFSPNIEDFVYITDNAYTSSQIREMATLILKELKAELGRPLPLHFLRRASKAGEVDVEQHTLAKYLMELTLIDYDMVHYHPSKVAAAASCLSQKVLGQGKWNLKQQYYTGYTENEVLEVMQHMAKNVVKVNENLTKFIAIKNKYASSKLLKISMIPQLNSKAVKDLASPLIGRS
R5Y: 0.124
G9A: 0.593
D12I: 0.498
P10M: -0.0748
R6I: -0.196
C4A: 0.1
D12G: 0.0444
D12T: 0.0553
A3M: 0.766
P10V: 0.0691
V11Q: 0.187
R6V: -0.18
A3E: 0.311
R6S: 0.0339
K2M: 0.479
K2E: 0.0514
D12W: 0.55
V11M: 0.0224
A3R: 0.471
R6Q: -0.0799
V11H: 0.221
R5D: -0.632
L7R: 0.401
D12V: 0.093
K2N: 0.219

Sample 3 — technique: protein-binding microarray; molecule type: double-stranded DNA, one strand shown; medium: in vitro; concentration: not given; reading: higher = stronger binding; measurement: E-score
Target: Myc proto-oncogene protein, bHLH-zipper, MAX partner unstated (MYC, Homo sapiens, UniProt P01106, residues 368-449)
UniProt P01106, sequence (368-449, looked up): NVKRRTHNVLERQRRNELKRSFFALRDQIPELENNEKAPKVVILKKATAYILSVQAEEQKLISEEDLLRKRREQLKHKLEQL
Notes: k-mer, scored over probes, only values ≥0.25
CGTGGTAA: 0.408
ACGTGCAA: 0.406
CCGACACG: 0.298
AAACGCAT: 0.298
CACGCTTA: 0.344
ACGCGAGT: 0.282
ACGCGGCC: 0.309
AATCACGT: 0.276
AGCATGAC: 0.322
CGAGCCAC: 0.321
GCGTGTCC: 0.414
GGCATGGA: 0.331
GTACACGA: 0.365
CACGATGC: 0.426
CCACGCAG: 0.378
CACCTGCC: 0.29
CAATGCGG: 0.28
ATGGCGCG: 0.256

Sample 4 — technique: RNA Bind-n-Seq; molecule type: RNA; medium: in vitro; concentration: 365 nM; baseline: no-protein control; reading: higher = stronger binding; measurement: RBNS enrichment (R)
Target: RNA binding protein fox-1 homolog 2, RRM domain, GST-SBP tag (RBFOX2, Homo sapiens, UniProt O43251-10, residues 100-194)
Notes: natural RNA segment, single round, ends assumed
All sequences stand within: GGGAGUUCUACAGUCCGACGAUC … UGGAAUUCUCGGGUGCCAA
Target sequence (chain): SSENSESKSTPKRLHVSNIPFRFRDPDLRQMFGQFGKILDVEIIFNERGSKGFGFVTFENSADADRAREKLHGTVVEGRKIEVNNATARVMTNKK
UUUUAAACUACAGAUGGACUUGGUUUGAGGGAGGGGGAAUCACAGAUUUGGUGCUAAGUUAAUUAGAAACUGGCAGCGUUUUACAGUAGUACACCAGCCUGGAUGUUUUU: 0.73
GGCUGUCACUGGCUGCUCGAGUCUCCAGCGUAAGCGCUUCACUUUGACUUAGGGUCAUAGUACGAGGGGAAUCCACUCCGUGGAAACCUCGGAAUGUCUGAGAAGGGAUA: 0.452
UGUGGGAGCCCGAGGACGCAGACUCGAGUUCCGCUUGGUCACUGUGAUUUCUGUUUUGUCUACAGACUCUUAACAAACCUCAGGAAAACUGUCCCUCUACCAGUUACCUU: 0.42
CUGAAAGCUAAAGGCUCACCACUUGAUGGUGCCUAAAGUGGGUCGGUUACCCGAGUGAGCGGCUGCACAGUGCUCACUGAGUCCCCUCAUCUCCAGCAGUCUUGGUGCUG: 0.272
CUUUGCUUUUCUCCCCAUAUCCCAAGGCGAAGCGCUGAGAUUCUUCCAUCUAAAAAACCCUCGACCCGAAACCCUCACCAGAUAAACUACAGUUUGUUUAGGAGGCCCUG: 0.465
GAUUCAUAUUGGAUCCCCAGGUAUACCUUCUGCUGGUAGCAUAUGGCUGGAAAAGGCCGUUUGCCUCACACAUUGUAACCUGCCUUGGCUAGAAAAUGCUUUUAAUGUCU: 0.269
CACCUUCCUCCCGAUUUGUUCACCUAUUUUGUGCUUUAAAUCUCAAUAAAAUACUUACUGAGGGAAAGGCUUGUUUUGAGUUUAUUGCAUAUGCCCACUUAGGACCAGAU: 0.494
UCUUUGCAUUGUGUACAUUAUCAUUGCUACAUCAGUUGUUACAGUGUUGAAAGGCUACCAGUUAUAUUUGCUGUUAAUAGUCUAUUUGUAGAUUAGGAUUAAAGUGGGUU: 1.89
UUACAGCCACCCUUGCAAGAAGUGCUGGUAUAGGGUCAGCUGGGGAGAAGAGCCCUGGUCAGUGGCCUUGGAUUGUCACUUCUUUCAGGAUAAAGAUCCCUUGGGGGGGG: 0.445
AGUGCUGAGGACAGUGUUGACAACUAACUCGUUUUCCUAGAUGGAAACGGAGACAUUGACCCCUCCCUCCAUGUGGUAAACCACUCCAGAAUGGCCACCAGGCUUCCCAG: 0.19
AUCCCUAUACCAUCCCACCCUGUUGUAUGUAUUAUAGGAUUUGUAUUUUCUUCUCCUCCCCUCCUCUUCCUCCUUUCUCUUUGCAUUCAAGAUUAUGAAACUUUGCUGUG: 1.62
UUCUAUUAUGAAUCAUGUGAAAGCAUGACAUUCGUUCACAAUAGCACUAUUUUAAAUAAAUUAUAAGCUUUAAGGUACGAAGUAUUUAAUAGAUCUAAUCAAAUAUGUUG: 0.331

Sample 5 — technique: aptamer microarray, sandwich; molecule type: DNA with 2'F-ANA; medium: in vitro; concentration: 200 nM; added: Cy3 exosite-II aptamer, 400 nM; reading: higher = stronger binding; measurement: mean fluorescence intensity; oligonucleotide: GGTTGGTGTGGTTGG
Target: Prothrombin, mature alpha-thrombin (F2, Homo sapiens, UniProt P00734)
Notes: whole 15-mer aptamer, many near background
2'F-ANA at 1 4 7 13: 106 a.u.
2'F-ANA at 4 5 6 14 15: 49.5 a.u.
2'F-ANA at 1 2 4 5 8 11 14 15: 45.9 a.u.
2'F-ANA at 4 5 6 8 10 11 12 13: 85.7 a.u.
2'F-ANA at 1 2 3 6 11 12 13: 291 a.u.
2'F-ANA at 2 6 7 8 9 10 13: 129 a.u.
2'F-ANA at 1 3 7 8 9 10 14 15: 61.5 a.u.
2'F-ANA at 2 10 11 13 15: 106 a.u.
2'F-ANA at 3 4 6 7 8 15: 707 a.u.
2'F-ANA at 1 2 3 4 8 12 13 15: 357 a.u.
2'F-ANA at 1 2 3 4 5 6 8 9 10 13 14: 48.4 a.u.
2'F-ANA at 1 2 3 8 9 13 14: 68.8 a.u.
2'F-ANA at 2 3 4 7 9 12 14 15: 334 a.u.
2'F-ANA at 1 2 4 6 11 12 14 15: 60.1 a.u.
2'F-ANA at 6 7 8 9 10 13 14 15: 161 a.u.
2'F-ANA at 1 3 4 5 6 7 9 10 13: 48.1 a.u.
2'F-ANA at 3 5 6 8 10 13 15: 61.3 a.u.
2'F-ANA at 1 2 4 5 6 7 8 12 14 15: 59.4 a.u.
2'F-ANA at 2 3 6 10 12 15: 388 a.u.
2'F-ANA at 1 3 4 5 6 7 8 9 10 12 14: 61.7 a.u.
